Measurements pooled from the literature.
Parts stem from different laboratories: compare values within a part only.

Study 1
Target: Histone acetyltransferase KAT6A, both winged helices, GST fusion (KAT6A, Homo sapiens, UniProt Q92794, residues 1-181)
Method: protein binding microarray
Form: double-stranded DNA, one strand shown
Matrix: in vitro
Concentration: not given
Notes: 8-mer, flanks averaged, mean of 2 arrays, mostly near background
Reference: not given
Direction: higher = stronger binding
Construct (chain): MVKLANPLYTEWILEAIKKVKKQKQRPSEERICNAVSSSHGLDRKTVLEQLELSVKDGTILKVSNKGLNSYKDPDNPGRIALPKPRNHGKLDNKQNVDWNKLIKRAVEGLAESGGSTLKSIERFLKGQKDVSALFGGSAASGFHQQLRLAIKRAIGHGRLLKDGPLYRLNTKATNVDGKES
Strand | E-score
CTTGCACA | -0.184
ACGACTCC | -0.241
ATATACGC | 0.154
CGGCATGC | 0.307
CATCTATC | -0.0565
ACATAACC | -0.0496

Study 2
Target: Max-binding protein MNT, bHLH-zipper, MAX partner unstated (MNT, Homo sapiens, UniProt Q99583, residues 220-300)
Method: protein-binding microarray
Form: double-stranded DNA, one strand shown
Matrix: in vitro
Concentration: not given
Notes: k-mer, scored over probes, only values ≥0.25
Direction: higher = stronger binding
Construct (chain): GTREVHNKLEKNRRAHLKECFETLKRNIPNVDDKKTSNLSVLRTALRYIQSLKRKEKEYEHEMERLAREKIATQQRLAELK
Strand | E-score
ACACGTTG | 0.442
ACCATGAG | 0.346
GCTCCACA | 0.267
TGCAGCCA | 0.285
ACATGATG | 0.261
GAGGCGCA | 0.263
CACGCACG | 0.404

Study 3
Target: Phosphate system positive regulatory protein PHO4, full length, GST-tagged (PHO4, Saccharomyces cerevisiae, UniProt P07270, residues 1-312)
Method: competition protein-binding microarray
Form: double-stranded DNA, one strand shown
Matrix: in vitro
Concentration: 2 µM
Notes: whole 60-bp probe, lowest competitor level
Added: Cbf1 competitor, 0.05 µM
Direction: higher = stronger binding
Construct (chain): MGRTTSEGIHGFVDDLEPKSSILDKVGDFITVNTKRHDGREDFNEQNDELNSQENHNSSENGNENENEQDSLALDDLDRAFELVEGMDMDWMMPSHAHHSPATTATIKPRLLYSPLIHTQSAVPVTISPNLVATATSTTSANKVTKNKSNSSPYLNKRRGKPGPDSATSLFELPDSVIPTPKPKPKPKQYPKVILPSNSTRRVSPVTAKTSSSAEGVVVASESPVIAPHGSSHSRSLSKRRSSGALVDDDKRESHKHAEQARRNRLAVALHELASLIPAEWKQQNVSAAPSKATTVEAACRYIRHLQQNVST
Strand | fluorescence intensity [a.u.]
ACCCGGGCAGCCGTTTCCGTGCCGAGGTTCCTCCGAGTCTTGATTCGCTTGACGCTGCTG | 3320
CCCCACTCCCGCGAGCACGTGCGCGTCCTCGCTGCTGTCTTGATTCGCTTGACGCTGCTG | 19100
CCTGACAACAAGAAGAGGATTGCAGAGCTTTTAGACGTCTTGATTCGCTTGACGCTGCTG | 3870
AAAGCGGTAATTTGAATGGTGGGTGCAGATATCTATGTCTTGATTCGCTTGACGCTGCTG | 4330
TCCAATTATGCGATGCATGTGCCTTCCGTTTAGAGTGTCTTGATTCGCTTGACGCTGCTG | 13300

Other studies, line by line
Substance | target | assay | system | conditions | how to read | endpoint | value
PhoQ, residues 284 288 289 292 302 303 TLASMF | PhoP, residues 12 14 15 18 19 AGCRL (Escherichia coli, UniProt P23836) | Sort-seq, measured: YFP reporter | E. coli | PhoQ-PhoP variant library, added: 10 µM Mg2+ | reference: high Mg2+ state, higher = stronger signaling | fold induction | 1.66

For quick reference, copied from above (study 2):
Strand | E-score
ACCATGAG | 0.346
GCTCCACA | 0.267
TGCAGCCA | 0.285
